Measurements collected from several papers.
Each line is one published result; not all experiments were run side by side. ± marks the error that the study gave.
Trace amine-associated receptor 1 M268T/N287Y: Trace amine-associated receptor 1 (Rattus norvegicus, UniProt Q923Y9, M268T/N287Y)
GLP1R: Glucagon-like peptide 1 receptor (GLP1R, Homo sapiens, UniProt P43220)
GRM4: Metabotropic glutamate receptor 4 (GRM4, Homo sapiens, UniProt Q14833)
Lysophospholipase-like protein 1: Lysophospholipase-like protein 1 (Mus musculus, UniProt Q3UFF7)
Melanocortin receptor 3: Melanocortin receptor 3 (Mus musculus, UniProt P33033)

Amino acid sequences for entries named in this document (tags omitted). Residues count along the entry.
UniProt Q923Y9, whole entry M268T/N287Y: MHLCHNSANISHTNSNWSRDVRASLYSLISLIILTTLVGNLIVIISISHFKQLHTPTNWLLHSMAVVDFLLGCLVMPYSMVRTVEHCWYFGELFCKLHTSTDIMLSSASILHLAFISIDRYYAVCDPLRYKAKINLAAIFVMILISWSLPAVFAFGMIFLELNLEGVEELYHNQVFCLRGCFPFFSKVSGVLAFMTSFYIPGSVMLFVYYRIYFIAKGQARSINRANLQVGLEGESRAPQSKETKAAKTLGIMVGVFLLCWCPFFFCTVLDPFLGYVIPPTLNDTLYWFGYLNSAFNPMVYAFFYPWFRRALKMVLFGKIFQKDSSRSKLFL
UniProt P43220, whole entry, looked up: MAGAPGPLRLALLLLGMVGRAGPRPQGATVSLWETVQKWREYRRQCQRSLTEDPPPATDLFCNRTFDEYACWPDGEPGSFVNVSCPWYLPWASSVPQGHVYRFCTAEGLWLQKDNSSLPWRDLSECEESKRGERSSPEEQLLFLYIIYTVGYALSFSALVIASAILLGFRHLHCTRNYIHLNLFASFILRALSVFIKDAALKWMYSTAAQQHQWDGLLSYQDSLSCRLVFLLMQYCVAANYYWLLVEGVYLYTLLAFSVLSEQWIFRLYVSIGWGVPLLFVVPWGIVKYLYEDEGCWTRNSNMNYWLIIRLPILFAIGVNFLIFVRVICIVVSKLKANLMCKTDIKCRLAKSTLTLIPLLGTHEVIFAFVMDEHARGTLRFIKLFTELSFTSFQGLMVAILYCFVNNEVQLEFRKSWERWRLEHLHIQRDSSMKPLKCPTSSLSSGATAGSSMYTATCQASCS
UniProt Q14833, 33-912 limits assumed: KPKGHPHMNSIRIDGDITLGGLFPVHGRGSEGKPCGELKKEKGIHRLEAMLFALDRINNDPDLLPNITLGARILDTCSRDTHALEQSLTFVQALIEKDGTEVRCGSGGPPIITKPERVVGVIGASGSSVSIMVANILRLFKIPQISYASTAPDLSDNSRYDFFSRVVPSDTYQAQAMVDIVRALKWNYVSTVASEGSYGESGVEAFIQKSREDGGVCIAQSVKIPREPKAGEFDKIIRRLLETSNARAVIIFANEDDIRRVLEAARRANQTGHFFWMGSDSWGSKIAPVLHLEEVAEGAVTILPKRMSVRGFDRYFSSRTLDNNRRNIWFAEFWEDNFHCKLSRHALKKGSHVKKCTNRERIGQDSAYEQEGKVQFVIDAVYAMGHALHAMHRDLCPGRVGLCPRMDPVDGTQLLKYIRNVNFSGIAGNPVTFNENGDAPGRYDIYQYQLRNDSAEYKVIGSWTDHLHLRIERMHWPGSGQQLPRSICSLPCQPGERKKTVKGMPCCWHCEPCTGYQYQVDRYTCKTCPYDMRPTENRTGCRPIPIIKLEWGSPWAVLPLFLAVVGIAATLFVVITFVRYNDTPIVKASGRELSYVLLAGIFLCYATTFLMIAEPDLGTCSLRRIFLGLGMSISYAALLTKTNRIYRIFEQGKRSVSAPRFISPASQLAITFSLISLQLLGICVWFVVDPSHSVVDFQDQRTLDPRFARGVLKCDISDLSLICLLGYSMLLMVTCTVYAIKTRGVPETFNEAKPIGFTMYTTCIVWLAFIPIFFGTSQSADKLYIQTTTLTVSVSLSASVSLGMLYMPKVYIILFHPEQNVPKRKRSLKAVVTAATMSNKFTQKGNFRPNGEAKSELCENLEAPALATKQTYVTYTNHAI
UniProt Q3UFF7, whole entry: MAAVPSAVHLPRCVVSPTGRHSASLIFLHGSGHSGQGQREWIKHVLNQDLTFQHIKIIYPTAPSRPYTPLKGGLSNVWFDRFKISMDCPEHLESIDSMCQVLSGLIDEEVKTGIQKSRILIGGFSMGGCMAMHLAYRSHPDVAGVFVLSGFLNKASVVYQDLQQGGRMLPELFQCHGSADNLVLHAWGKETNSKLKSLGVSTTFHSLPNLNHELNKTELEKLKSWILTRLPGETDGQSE
UniProt P33033, whole entry: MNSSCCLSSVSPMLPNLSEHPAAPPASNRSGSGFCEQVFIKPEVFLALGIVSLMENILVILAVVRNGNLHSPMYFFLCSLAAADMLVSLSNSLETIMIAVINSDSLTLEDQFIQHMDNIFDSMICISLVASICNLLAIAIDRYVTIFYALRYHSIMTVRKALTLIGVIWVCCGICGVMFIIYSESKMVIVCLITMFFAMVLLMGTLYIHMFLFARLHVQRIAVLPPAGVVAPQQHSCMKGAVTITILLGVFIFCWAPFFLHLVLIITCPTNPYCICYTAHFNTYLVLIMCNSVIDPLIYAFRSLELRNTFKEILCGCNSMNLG
UniProt Q923Y8, whole entry: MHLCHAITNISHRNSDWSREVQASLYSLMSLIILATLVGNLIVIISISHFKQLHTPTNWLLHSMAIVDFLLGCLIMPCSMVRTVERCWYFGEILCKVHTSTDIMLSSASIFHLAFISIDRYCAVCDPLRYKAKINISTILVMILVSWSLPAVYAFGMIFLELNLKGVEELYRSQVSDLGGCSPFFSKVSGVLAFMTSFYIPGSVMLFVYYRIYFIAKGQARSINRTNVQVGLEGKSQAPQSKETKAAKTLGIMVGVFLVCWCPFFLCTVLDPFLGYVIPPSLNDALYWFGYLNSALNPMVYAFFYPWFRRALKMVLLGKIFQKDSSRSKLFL
UniProt Q02750, whole entry: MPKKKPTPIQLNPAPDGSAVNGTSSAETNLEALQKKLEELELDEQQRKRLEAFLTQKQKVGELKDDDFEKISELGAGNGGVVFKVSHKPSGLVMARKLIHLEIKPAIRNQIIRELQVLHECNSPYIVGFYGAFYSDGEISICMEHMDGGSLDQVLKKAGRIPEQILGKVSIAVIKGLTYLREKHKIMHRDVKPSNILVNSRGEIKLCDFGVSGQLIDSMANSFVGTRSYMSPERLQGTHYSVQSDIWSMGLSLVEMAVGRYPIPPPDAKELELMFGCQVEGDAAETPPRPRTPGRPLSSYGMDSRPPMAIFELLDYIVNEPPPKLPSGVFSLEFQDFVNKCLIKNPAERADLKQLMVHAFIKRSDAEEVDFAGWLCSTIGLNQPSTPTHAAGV
UniProt P08912, whole entry: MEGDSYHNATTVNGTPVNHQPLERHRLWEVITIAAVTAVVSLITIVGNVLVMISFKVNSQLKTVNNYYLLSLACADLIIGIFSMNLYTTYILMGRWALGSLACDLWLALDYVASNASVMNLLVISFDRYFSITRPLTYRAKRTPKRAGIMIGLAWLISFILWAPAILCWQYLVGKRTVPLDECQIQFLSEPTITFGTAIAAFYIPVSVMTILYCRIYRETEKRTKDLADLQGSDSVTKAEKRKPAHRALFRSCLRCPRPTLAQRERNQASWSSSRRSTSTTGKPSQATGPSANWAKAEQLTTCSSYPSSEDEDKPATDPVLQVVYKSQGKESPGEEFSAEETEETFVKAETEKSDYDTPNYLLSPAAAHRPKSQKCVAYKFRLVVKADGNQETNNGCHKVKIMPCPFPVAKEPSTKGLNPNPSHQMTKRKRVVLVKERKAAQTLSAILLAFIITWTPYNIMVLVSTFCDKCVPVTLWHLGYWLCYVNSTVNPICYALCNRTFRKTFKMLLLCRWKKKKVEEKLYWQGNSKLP
UniProt O60603, 21-784 limits assumed: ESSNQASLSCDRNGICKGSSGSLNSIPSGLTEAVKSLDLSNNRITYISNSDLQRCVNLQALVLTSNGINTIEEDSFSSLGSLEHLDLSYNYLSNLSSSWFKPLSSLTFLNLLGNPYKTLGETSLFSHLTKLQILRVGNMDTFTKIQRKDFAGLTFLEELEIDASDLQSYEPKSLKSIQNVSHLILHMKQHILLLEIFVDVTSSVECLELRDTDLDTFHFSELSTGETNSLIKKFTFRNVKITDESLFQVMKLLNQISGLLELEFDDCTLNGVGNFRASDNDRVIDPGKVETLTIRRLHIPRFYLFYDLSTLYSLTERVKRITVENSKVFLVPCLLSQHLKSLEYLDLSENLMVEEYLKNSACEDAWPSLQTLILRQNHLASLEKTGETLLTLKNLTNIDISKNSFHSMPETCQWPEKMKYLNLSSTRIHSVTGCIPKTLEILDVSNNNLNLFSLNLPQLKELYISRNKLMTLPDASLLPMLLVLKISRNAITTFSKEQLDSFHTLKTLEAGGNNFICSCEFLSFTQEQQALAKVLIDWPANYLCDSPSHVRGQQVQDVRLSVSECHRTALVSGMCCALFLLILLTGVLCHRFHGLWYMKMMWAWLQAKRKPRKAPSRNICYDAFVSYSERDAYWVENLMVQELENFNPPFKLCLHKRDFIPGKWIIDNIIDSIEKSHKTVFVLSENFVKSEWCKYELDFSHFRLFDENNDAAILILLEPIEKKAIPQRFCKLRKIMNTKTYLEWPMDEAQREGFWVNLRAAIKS
UniProt O60603, whole entry, looked up: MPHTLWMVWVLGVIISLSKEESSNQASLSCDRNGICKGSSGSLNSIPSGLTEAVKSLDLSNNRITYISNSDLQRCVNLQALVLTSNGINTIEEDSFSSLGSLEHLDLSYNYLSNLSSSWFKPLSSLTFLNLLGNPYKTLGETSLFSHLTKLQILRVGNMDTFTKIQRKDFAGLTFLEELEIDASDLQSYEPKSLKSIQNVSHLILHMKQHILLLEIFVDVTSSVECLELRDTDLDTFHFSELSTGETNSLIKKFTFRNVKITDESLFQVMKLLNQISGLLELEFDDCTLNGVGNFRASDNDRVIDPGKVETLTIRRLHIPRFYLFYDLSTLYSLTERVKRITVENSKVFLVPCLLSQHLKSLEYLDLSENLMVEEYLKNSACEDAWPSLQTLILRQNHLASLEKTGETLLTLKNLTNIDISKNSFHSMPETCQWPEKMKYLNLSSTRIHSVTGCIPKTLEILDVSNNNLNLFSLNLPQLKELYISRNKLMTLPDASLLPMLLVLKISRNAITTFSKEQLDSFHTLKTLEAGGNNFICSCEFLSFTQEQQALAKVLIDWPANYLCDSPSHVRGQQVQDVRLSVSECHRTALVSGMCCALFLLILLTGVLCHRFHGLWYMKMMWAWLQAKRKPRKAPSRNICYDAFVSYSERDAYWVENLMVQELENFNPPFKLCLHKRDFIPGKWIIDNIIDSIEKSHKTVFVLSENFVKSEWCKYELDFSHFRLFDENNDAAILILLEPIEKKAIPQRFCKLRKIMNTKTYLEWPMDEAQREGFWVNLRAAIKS
UniProt P31421, 19-872 limits assumed: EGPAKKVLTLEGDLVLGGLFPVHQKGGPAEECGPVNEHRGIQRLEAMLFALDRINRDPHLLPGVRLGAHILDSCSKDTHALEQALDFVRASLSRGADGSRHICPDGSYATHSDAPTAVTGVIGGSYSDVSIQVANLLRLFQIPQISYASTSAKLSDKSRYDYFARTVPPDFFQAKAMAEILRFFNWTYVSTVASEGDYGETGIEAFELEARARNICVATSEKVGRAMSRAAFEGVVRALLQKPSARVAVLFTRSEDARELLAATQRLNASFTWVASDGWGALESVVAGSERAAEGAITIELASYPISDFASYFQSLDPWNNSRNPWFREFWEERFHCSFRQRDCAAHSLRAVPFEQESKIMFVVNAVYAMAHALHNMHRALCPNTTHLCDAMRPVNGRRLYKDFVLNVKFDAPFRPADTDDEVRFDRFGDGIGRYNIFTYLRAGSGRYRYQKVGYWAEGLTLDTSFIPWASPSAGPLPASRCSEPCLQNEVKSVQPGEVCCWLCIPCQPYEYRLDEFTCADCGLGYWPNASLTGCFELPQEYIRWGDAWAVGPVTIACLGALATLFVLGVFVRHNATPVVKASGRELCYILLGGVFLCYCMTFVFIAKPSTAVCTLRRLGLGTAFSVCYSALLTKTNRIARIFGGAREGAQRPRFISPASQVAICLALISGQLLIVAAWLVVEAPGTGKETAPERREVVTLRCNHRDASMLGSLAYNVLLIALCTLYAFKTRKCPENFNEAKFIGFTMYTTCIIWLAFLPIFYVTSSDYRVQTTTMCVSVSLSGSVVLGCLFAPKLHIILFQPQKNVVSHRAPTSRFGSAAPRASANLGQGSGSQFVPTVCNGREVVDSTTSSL
UniProt Q5VWZ2, whole entry: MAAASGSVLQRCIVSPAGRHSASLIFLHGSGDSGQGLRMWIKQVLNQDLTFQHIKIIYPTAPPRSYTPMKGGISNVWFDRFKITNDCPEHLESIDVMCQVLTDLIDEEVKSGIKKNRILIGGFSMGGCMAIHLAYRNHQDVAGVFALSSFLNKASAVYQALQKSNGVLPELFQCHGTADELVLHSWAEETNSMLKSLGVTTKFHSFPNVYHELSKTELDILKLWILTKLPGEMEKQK
UniProt Q3TBT3, whole entry: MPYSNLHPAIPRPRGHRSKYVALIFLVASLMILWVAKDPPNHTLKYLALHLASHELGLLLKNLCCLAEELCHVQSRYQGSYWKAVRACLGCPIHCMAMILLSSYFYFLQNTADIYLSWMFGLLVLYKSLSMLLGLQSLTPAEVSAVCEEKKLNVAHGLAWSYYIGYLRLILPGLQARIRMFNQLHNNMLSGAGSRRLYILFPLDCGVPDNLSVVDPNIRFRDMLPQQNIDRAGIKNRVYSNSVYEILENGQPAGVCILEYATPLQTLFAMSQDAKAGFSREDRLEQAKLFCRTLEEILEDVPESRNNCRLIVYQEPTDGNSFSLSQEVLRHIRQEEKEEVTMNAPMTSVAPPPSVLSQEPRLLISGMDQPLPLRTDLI

NCC(c1ccccc1)c1cccc(Oc2ccccc2)c1 (centres unmarked)  EC50 (Trace amine-associated receptor 1 M268T/N287Y; cAMP production, agonist; double mutant): > 10000 nM
COC(=O)[C@@H]1C(c2nc3ccccc3o2)=Cc2cc3c(cc2[C@H]1c1cc(OC)c(OC)c(OC)c1)OCO3  EC50 (Leishmania infantum; promastigote, iRFP): 19400 ± 2100 nM
Cc1ccc(S(=O)(=O)OCCc2cn(CCc3c(C)[nH]c4cc(Cl)cc(Cl)c34)nn2)cc1  EC50 (GLP1R; cAMP accumulation, positive allosteric modulator, HTRF; CHO-K1 expressing GLP1R; crude reaction product, together with: GLP-1(9-36) at EC20): 1060 nM
COc1ccc(NC(=O)CN2CCCN(S(=O)(=O)c3ccc(F)cc3)CC2)c(OC)c1  EC50 (GRM4; calcium mobilization, positive allosteric modulator; CHO cells with Gqi5; together with: glutamate EC20): > 10000 nM
COC(=O)C1(C)C=C(C(=O)Nc2cccc(C(=O)Nc3ccc(Nc4nccc(-c5cccnc5)n4)c(C)c3)c2)C(=O)C1 (centres unmarked)  EC50 (MAPK8 (Homo sapiens, UniProt P45983); JNK1 binding, NanoBRET; HEK293 cells; 2 h, together with: tracer K-5): 9.4 ± 0.4 nM
NCC(c1ccccc1)c1ccc(Oc2ccccc2)cc1 (centres unmarked)  EC50 (Taar1 (Mus musculus, UniProt Q923Y8); cAMP production, agonist; HEK293): > 10000 nM
O=C(NCCc1ccccc1)C12CC1/C(=N\O)c1ccccc1O2 (centres unmarked)  EC50 (GRM4; calcium mobilization, positive allosteric modulator; CHO hmGluR4/Gqi5; together with: glutamate EC20): > 5000 nM
Cc1c(=O)n(C)c(Nc2ccc(I)cc2F)c2c(=O)n(C3CC3)c(=O)n(-c3cccc(NC(=O)CCOCCOCCNC(=O)CCC4=[N+]5C(=Cc6ccc(-c7ccc[nH]7)n6[B-]5(F)F)C=C4)c3)c12  EC50 (MAP2K1 (Homo sapiens, UniProt Q02750); binding, NanoBRET; HEK-293T; MEK1-NanoLuc): 6 nM
Oc1ccc(N=Cc2c(O)ccc3ccccc23)cc1  EC50 (CDK2 (Homo sapiens, UniProt P24941); ANS displacement; ATP site blocked, together with: staurosporine 5 µM): 56000 ± 8000 nM
COc1ccc(NC(=O)CN2CCCN(S(=O)(=O)c3ccccc3Cl)CC2)c(OC)c1  EC50 (GRM4; calcium mobilization, positive allosteric modulator; CHO cells with Gqi5; together with: glutamate EC20): > 10000 nM
Cc1ccc(F)cc1S(=O)(=O)n1nc(SCc2ccccc2)nc1N  EC50 (Lysophospholipase-like protein 1; enzyme activity, activator, gel-based ABPP, FP-rhodamine; purified protein): > 20000 nM
CCCCN(C(=O)C1CCN(S(=O)(=O)c2ccc3[nH]ncc3c2)CC1)[C@@H]1CCc2ccccc21  EC50 (CHRM5 (Homo sapiens, UniProt P08912); positive allosteric modulator, calcium mobilization; CHO cells expressing human M5; together with: acetylcholine EC20): 349 nM
O=C(O)CCNC(=O)c1ccc(NCc2cn(CCc3ccc4ccccc4c3)nn2)cc1  EC50 (GLP1R; cAMP accumulation, positive allosteric modulator, HTRF; CHO-K1 expressing GLP1R; together with: GLP-1 at EC20): 6750 nM
NCCCCNC(=O)[C@H](Cc1c[nH]cn1)NC(=O)N1CCc2ccccc2C1  EC50 (Melanocortin receptor 3; reporter gene, agonist, β-galactosidase reporter; HEK293 stably expressing Melanocortin receptor 3): > 100000 nM
CCCCCCCCCCCCCCCC(=O)OCCSC[C@H](NC(C)=O)C(=O)N[C@@H](CO)C(=O)OC  EC50 (TLR2 (Homo sapiens, UniProt O60603); NF-κB reporter gene, agonist, SEAP reporter; HEK-Blue hTLR2 cells): 0.66 nM
COc1ccc(NC(=O)CN2CCCN(S(=O)(=O)c3cc(C)ccc3C)CC2)c(OC)c1  EC50 (GRM4; calcium mobilization, positive allosteric modulator; CHO cells with Gqi5; together with: glutamate EC20): 2700 ± 600 nM
CNc1ccc([N+](=O)[O-])cc1-n1cnc(-c2ccc(C(=O)OC)cc2)c1  EC50 (Toll-like receptor 1/2 (Homo sapiens, UniProt O60603+Q15399); reporter gene, agonist, SEAP reporter; HEK-Blue hTLR2; 24 h): 990 ± 190 nM
Cc1nc(-c2ccc(OCC(C)C)c(C#N)c2)sc1C(N)=O  EC50 (Grm2 (Rattus norvegicus, UniProt P31421); thallium flux, positive allosteric modulator; HEK293 GIRK; together with: glutamate EC20): 1200 nM
COc1ccc(NC(=O)CN2CCCN(S(=O)(=O)c3ccc(F)c(F)c3)CC2)c(OC)c1  EC50 (GRM4; calcium mobilization, positive allosteric modulator; CHO cells with Gqi5; together with: glutamate EC20): > 10000 nM
N#CC[C@@]12C[C@@H]1[C@@H](n1cnc3c(NCc4cccc(Cl)c4)nc(I)nc31)[C@H](O)[C@@H]2O  EC50 (SLC6A3 (Homo sapiens, UniProt Q01959)): 1700 nM
Nc1nc(SCc2ccc(Cl)c(Cl)c2)nn1S(=O)(=O)c1ccc2c(c1)CCO2  EC50 (LYPLAL1 (Homo sapiens, UniProt Q5VWZ2); enzyme activity, activator, gel-based ABPP, FP-rhodamine; purified protein): 450 nM
O=C(Nc1ccc([N+](=O)[O-])cc1)N[C@@H](Cc1c[nH]c2ccccc12)C(=O)NCC1(c2ccccn2)CCCCC1  EC50 (FPR2 (Homo sapiens, UniProt P25090); Ca2+ mobilization, agonist; HL-60 transfected with FPR2): 2000 ± 650 nM
NCCCCNC(=O)[C@H](Cc1ccc(Cl)cc1)NC(=O)N1CCc2ccccc2C1  EC50 (Melanocortin receptor 4 (Mus musculus, UniProt P56450); reporter gene, agonist, β-galactosidase reporter; HEK293 stably expressing Melanocortin receptor 4): > 100000 nM
CC(C)(Cn1cc(-c2ccc(B(O)O)cc2)nn1)c1c[nH]c2ccccc12  EC50 (GLP1R; cAMP accumulation, positive allosteric modulator, HTRF; CHO-K1 expressing GLP1R; crude reaction product, together with: GLP-1(9-36) at EC20): 769 nM
CCCn1c(NCc2cccc(Cl)c2O)nc2ccccc21  EC50 (ALDH1A1 (Homo sapiens, UniProt P00352); enzyme activity, inhibitor, NADH absorbance 340 nm; pH 7.5, 25 °C, 200 µM NAD+, together with: 100 µM propionaldehyde): 190 ± 15 nM
CCn1nc(C)cc1C(=O)Nc1nc2cc(C(N)=O)cc(OC)c2n1CCCCn1c(NC(=O)c2cc(C)nn2CC)nc2cc(C(N)=O)cc(OCCCN3CCN(C(=O)CCCCCN4C(=O)C=CC4=O)CC3)c21  EC50 (Sting1 (Mus musculus, UniProt Q3TBT3); IFN-β secretion, agonist, ELISA; mouse BMDCs; carrier-free cysteine-blocked click): 1620 nM
NCCCCNC(=O)[C@H](Cc1ccc2ccccc2c1)NC(=O)N1CCc2ccccc2C1  EC50 (Melanocortin receptor 3; reporter gene, agonist, β-galactosidase reporter; HEK293 stably expressing Melanocortin receptor 3): > 100000 nM
CCCC(O)c1cn(CCc2c(C)[nH]c3cc(Cl)cc(Cl)c23)nn1 (centres unmarked)  EC50 (GLP1R; cAMP accumulation, positive allosteric modulator, HTRF; CHO-K1 expressing GLP1R; crude reaction product, together with: GLP-1(9-36) at EC20): 546 nM
NCC(c1ccc(O)cc1)c1ccc(Oc2ccccc2)cc1 (centres unmarked)  EC50 (Trace amine-associated receptor 1 M268T/N287Y; cAMP production, agonist; double mutant): ~2000 nM
COC(=O)[C@@H]1C(c2nc3cc(Cl)ccc3o2)=Cc2cc3c(cc2[C@H]1c1cc(OC)c(OC)c(OC)c1)OCO3  EC50 (Leishmania infantum; promastigote, iRFP): 13900 ± 2800 nM
COc1cccc2ncn(CC3CCN(S(=O)(=O)c4cccc(C(F)(F)F)c4)CC3)c12  EC50 (KCNT1 (Homo sapiens, UniProt Q5JUK3); thallium flux, activator; HEK293 expressing KCNT1): 6200 nM
Cc1[nH]c2cc(Cl)cc(Cl)c2c1CCn1cc(C2(O)COC2)nn1  EC50 (GLP1R; cAMP accumulation, positive allosteric modulator, HTRF; CHO-K1 expressing GLP1R; purified compound, together with: GLP-1(9-36) at EC20): 668 ± 64 nM
Cc1cc(SCc2sc(-c3ccc(C#N)cc3Cl)nc2C)ccc1OCC(=O)O  CC50 (HEK293T; 18 h): > 100000 nM
Nc1nc(SCc2ccc(Cl)cc2)nn1S(=O)(=O)c1cccc2nonc12  EC50 (Lysophospholipase-like protein 1; enzyme activity, activator, gel-based ABPP, FP-rhodamine; purified protein): 440 nM
C/C=C/c1cc(-c2nn(-c3nc(C(=O)O)cs3)c(CC3CC3)c2Cc2ccc(S(N)(=O)=O)c(F)c2)ccc1F  EC50 (LDHA (Homo sapiens, UniProt P00338); thermal stabilisation, CETSA; HEK293; 3.5 min, 71 °C): 20 nM
Cc1cc(SCc2sc(-c3cccc([S+](C)[O-])c3)nc2C)ccc1OCC(=O)O (centres unmarked)  CC50 (HEK293T; 18 h): not toxic
Nc1nc(CCCc2ccc(Cl)cc2)nn1S(=O)(=O)c1ccc2ccccc2c1  EC50 (Lysophospholipase-like protein 1; enzyme activity, activator, gel-based ABPP, FP-rhodamine; purified protein): > 20000 nM
CCC(C)(N)c1cn(CC(C)(C)c2c[nH]c3ccccc23)nn1 (centres unmarked)  EC50 (GLP1R; cAMP accumulation, positive allosteric modulator, HTRF; CHO-K1 expressing GLP1R; purified compound, together with: GLP-1(9-36) at EC20): 2010 ± 720 nM

Some of these lines once more:
Oc1ccc(N=Cc2c(O)ccc3ccccc23)cc1  EC50 (CDK2 (Homo sapiens, UniProt P24941); ANS displacement; ATP site blocked, together with: staurosporine 5 µM): 56000 ± 8000 nM
COc1ccc(NC(=O)CN2CCCN(S(=O)(=O)c3ccccc3Cl)CC2)c(OC)c1  EC50 (GRM4; calcium mobilization, positive allosteric modulator; CHO cells with Gqi5; together with: glutamate EC20): > 10000 nM
Cc1ccc(F)cc1S(=O)(=O)n1nc(SCc2ccccc2)nc1N  EC50 (Lysophospholipase-like protein 1; enzyme activity, activator, gel-based ABPP, FP-rhodamine; purified protein): > 20000 nM
CCCCN(C(=O)C1CCN(S(=O)(=O)c2ccc3[nH]ncc3c2)CC1)[C@@H]1CCc2ccccc21  EC50 (CHRM5 (Homo sapiens, UniProt P08912); positive allosteric modulator, calcium mobilization; CHO cells expressing human M5; together with: acetylcholine EC20): 349 nM
O=C(O)CCNC(=O)c1ccc(NCc2cn(CCc3ccc4ccccc4c3)nn2)cc1  EC50 (GLP1R; cAMP accumulation, positive allosteric modulator, HTRF; CHO-K1 expressing GLP1R; together with: GLP-1 at EC20): 6750 nM
